Experimental data collected from several papers.
Each line is one published result; not all experiments were run side by side. Several values in a cell are separate wells, animals, samples, runs or records. ± marks the error that the study gave.
Sequence of UniProt P08684 (whole entry, looked up): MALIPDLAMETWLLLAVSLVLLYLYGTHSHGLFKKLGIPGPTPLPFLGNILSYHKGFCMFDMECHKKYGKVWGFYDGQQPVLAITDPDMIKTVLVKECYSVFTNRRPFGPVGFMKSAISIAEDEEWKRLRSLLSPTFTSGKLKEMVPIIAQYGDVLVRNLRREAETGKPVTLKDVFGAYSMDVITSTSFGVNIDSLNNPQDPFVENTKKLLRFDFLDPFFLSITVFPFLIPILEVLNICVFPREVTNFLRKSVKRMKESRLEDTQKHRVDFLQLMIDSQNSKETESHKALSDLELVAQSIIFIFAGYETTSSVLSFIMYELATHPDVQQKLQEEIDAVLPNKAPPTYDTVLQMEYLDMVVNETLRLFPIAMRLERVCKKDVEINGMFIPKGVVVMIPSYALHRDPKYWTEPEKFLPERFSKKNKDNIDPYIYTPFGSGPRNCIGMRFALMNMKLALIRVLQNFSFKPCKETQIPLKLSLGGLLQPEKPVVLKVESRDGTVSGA
Sequence of UniProt P08183 (whole entry, looked up): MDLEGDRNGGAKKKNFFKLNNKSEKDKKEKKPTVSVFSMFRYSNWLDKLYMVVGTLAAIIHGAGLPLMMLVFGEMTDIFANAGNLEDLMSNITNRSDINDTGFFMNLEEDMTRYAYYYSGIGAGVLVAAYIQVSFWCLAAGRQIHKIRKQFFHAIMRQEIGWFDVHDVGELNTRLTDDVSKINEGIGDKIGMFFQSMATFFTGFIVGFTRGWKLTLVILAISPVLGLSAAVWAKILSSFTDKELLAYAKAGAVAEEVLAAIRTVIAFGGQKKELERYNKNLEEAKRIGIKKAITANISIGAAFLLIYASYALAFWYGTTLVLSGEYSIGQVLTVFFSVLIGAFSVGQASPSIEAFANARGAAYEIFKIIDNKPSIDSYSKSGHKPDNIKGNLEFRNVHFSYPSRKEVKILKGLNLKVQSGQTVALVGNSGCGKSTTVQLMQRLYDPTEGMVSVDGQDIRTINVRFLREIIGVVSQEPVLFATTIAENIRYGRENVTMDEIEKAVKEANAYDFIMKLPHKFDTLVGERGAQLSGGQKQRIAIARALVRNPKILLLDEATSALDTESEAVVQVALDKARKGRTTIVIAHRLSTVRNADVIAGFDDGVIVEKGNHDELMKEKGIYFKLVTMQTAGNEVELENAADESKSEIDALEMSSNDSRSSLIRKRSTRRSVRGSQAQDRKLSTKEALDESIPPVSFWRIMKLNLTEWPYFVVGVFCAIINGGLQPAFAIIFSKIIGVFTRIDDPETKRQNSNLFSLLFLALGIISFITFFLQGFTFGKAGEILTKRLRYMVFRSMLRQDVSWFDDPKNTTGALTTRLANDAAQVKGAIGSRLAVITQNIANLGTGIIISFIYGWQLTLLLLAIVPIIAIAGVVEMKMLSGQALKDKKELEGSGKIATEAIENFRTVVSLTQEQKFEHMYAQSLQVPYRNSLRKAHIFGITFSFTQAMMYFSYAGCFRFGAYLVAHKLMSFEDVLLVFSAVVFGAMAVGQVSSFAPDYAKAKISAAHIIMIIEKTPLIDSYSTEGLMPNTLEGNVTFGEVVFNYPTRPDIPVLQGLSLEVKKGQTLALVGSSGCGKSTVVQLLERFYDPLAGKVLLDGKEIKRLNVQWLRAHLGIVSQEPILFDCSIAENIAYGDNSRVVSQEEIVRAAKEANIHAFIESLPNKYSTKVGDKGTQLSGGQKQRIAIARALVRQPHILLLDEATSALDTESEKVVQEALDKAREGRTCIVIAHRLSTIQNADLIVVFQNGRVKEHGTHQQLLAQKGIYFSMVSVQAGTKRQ

Cc1cc(C)c(CNC(=O)c2cc(Cl)c3c(c2C)O[C@@](C)([C@H]2CC[C@H](N(C)C)CC2)O3)c(=O)[nH]1
Arthralgia incidence (human, relapsed/refractory NHL; concentration not given, treatment-related TEAEs, grade 5): 0%

O=[N+]([O-])c1ccc(N2CCC(NCCC(O)c3ccc(F)c4ccccc34)CC2)c(C(F)(F)F)c1 (centres unmarked)
survival (Salmonella typhimurium; SOS/umu test; TA1535/pSK1002, TGA medium; 1.53e-05 mg/mL, 4 h, without S9): 105%

O=c1ccc2ccccc2o1
point of departure (HepG2; refers to: phospholipidosis; 24 h, phospholipidosis and steatosis panel): 674 µM

Cc1c(Cl)c(=O)oc2cc(OCCCC[Se]C#N)ccc12
developmental defects (Caenorhabditis elegans; N2 Bristol, NGM with E. coli OP50; 50 µM, 3 days): 1.85%

CCOc1ccc(-c2nc3ccc(-c4nc5ccc(N6CCN(C)CC6)cc5[nH]4)cc3[nH]2)cc1
Kd (Albumin (ALB, Homo sapiens, UniProt P02768); binding, second site, fluorescence titration; PBS): > 1000 µM

Cc1ncc2n1-c1ccc(Cl)cc1C(c1ccccc1F)=NC2
AUC(0-inf) (Cytochrome P450 3A4 (CYP3A4, Homo sapiens, UniProt P08684); human, plasma; oral, 2 mg, day 1, alone, geometric mean): 20.7 ng·h/mL

CN(CC(C)(C)C)N=O
revertant colonies per plate (Escherichia coli; mutagenicity, Ames plate incorporation; WP2 uvrA pKM101; 150 µg/plate, without S9, methanol): 121 ± 10

Cc1ncc(OC[C@@]2(c3cccc(F)c3)C[C@H]2C(=O)Nc2ccc(F)cn2)c(C)n1
Papp A to B (MDCK; 1 µM, 90 min, pH 6.5 apical, 7.4 basolateral): 45.6 ×10⁻⁶ cm/s and 38.6 ×10⁻⁶ cm/s

CC(C)CC(=O)OC[C@H]1O[C@@](C#N)(c2ccc3c(N)ncnn23)[C@H](O)[C@@H]1O
efflux ratio (ATP-dependent translocase ABCB1 (ABCB1, Homo sapiens, UniProt P08183); Caco-2; 9 µM, 2 h): 6.28

CNC(=O)c1c(N(C)N=O)ncn1C
revertant colonies per plate (Escherichia coli; plate incorporation; WP2uvrA pKM101, water; 500 µg/plate, without S9): 87.3 ± 12

CN1CC[C@@H](c2c(O)cc(O)c3c(=O)cc(-c4ccc(C(F)(F)F)cc4Cl)oc23)[C@@H]1CO
patients with adverse event (refers to: Dyspnea; B-cell malignancies or AML; oral, 50 mg, continuous dosing): 12.5%

N#Cc1c(C(F)(F)F)cc(-c2ccccc2)nc1SCC(=O)Nc1cccnc1
viability (MDA-MB-231; MTT; 100 µM, 72 h): 42 ± 10%

O=C1c2c(O)c(=O)ccn2N([C@@H]2c3ccccc3SCc3c2ccc(F)c3F)[C@@H]2COCCN12
plasma concentration (BALB/c mice, plasma; oral, 50 mg/kg baloxavir marboxil, 0.5 h): 216 ng/mL

CCN(CC)C(=O)[C@@H]1C=C2c3cccc4[nH]cc(c34)C[C@H]2N(C)C1
AUC extrapolated (human; oral, 100 µg): 1.28% and 3.32% and 2.03% and 5.84% and 1.42% and 11.9% and 1.46%

O=C(Nc1ccccc1)C1CCN(C(=O)Oc2cccnc2)CC1
subjects with Haematoma adverse event (adverse event reporting; healthy women; oral, 60 mg): 14.3%

CO[C@H]1C[C@@H]2CC[C@@H](C)[C@@](O)(O2)C(=O)C(=O)N2CCCC[C@H]2C(=O)O[C@H]([C@H](C)C[C@@H]2CC[C@@H](OC(=O)NCCOCCOCCOCCOCCOCCOCCOCCOCCC(=O)N3CCc4cc(Cn5nc(-c6ccc7oc(N)nc7c6)c6c(N)ncnc65)ccc4C3)[C@H](OC)C2)C[C@@H](O)[C@H](C)/C=C(\C)[C@@H](O)[C@@H](OC)C(=O)[C@H](C)C[C@H](C)/C=C/C=C/C=C/1C
TRAE incidence (phase 1 dose escalation, refers to: vomiting; advanced solid tumour patients; intravenous, 8 mg weekly, grade ≥3): 0%

COc1ccc(-n2nc(C(C)=O)s/c2=N\N=C(/C)c2ccc(NC(C)=O)cc2)cc1
viability (WI-38; 0.625 µM, 24 (unit not given)): 3.48%

Cc1cc(C(=O)NC(C)(C)COc2cccc3c2C(N)=NS(=O)(=O)N3)cc(C)n1
revertant ratio (Escherichia coli; Ames test, confirmatory; WP2 uvrA; 5000 µg/plate; relative to: solvent control): 0.7

CN(N=O)c1ccc(F)cc1
revertant colonies per plate (Escherichia coli; mutagenicity, Ames plate incorporation; WP2 uvrA pKM101; 500 µg/plate, 3 d, without S9, methanol): 104 ± 9

C[C@]1(CO)Cc2ncn(-c3ccc(C#N)c(Cl)c3)c2C(=O)O1
Cmax at steady state (human, plasma; 10 mg once daily, fasted): 435 nM

CCc1ccc(CC/C=C/c2ccc3c(c2)C(=O)CC3)cc1
Basophil percentage (Sprague-Dawley rat, male; oral, 120 mg/kg/day, 14 days): 0.33%

COCCN(CCOC)N=O
revertant colonies per plate (Escherichia coli; mutagenicity, Ames plate incorporation; WP2 uvrA pKM101; 500 µg/plate, 3 d, without S9, methanol): 145 ± 6

COc1cc2c(Oc3ccc4[nH]c(C)cc4c3F)ccnc2cc1OCC1(N)CC1
Fever incidence (paediatric refractory sarcoma patients; 10 mg): 25%

Excerpt of the above:
CO[C@H]1C[C@@H]2CC[C@@H](C)[C@@](O)(O2)C(=O)C(=O)N2CCCC[C@H]2C(=O)O[C@H]([C@H](C)C[C@@H]2CC[C@@H](OC(=O)NCCOCCOCCOCCOCCOCCOCCOCCOCCC(=O)N3CCc4cc(Cn5nc(-c6ccc7oc(N)nc7c6)c6c(N)ncnc65)ccc4C3)[C@H](OC)C2)C[C@@H](O)[C@H](C)/C=C(\C)[C@@H](O)[C@@H](OC)C(=O)[C@H](C)C[C@H](C)/C=C/C=C/C=C/1C
TRAE incidence (phase 1 dose escalation, refers to: vomiting; advanced solid tumour patients; intravenous, 8 mg weekly, grade ≥3): 0%

COc1ccc(-n2nc(C(C)=O)s/c2=N\N=C(/C)c2ccc(NC(C)=O)cc2)cc1
viability (WI-38; 0.625 µM, 24 (unit not given)): 3.48%

Cc1cc(C(=O)NC(C)(C)COc2cccc3c2C(N)=NS(=O)(=O)N3)cc(C)n1
revertant ratio (Escherichia coli; Ames test, confirmatory; WP2 uvrA; 5000 µg/plate; relative to: solvent control): 0.7
